{"data": "Published values from different studies", "note": "Parts stem from different laboratories: compare values within a part only. “And” joins repeats or separate records; there may be more than shown.", "chain of UniProt P41145 (whole entry, looked up)": "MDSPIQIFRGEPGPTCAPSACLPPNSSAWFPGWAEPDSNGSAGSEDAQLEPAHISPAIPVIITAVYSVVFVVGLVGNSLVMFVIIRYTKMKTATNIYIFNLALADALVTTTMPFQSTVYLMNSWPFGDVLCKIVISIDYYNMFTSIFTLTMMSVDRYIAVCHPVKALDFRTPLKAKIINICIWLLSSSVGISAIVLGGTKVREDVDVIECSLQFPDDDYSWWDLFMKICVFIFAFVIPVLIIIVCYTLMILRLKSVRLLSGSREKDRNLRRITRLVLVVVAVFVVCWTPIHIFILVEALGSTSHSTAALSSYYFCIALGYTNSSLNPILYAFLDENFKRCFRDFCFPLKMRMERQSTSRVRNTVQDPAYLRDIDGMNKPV", "chain of UniProt P35372 (whole entry, looked up)": "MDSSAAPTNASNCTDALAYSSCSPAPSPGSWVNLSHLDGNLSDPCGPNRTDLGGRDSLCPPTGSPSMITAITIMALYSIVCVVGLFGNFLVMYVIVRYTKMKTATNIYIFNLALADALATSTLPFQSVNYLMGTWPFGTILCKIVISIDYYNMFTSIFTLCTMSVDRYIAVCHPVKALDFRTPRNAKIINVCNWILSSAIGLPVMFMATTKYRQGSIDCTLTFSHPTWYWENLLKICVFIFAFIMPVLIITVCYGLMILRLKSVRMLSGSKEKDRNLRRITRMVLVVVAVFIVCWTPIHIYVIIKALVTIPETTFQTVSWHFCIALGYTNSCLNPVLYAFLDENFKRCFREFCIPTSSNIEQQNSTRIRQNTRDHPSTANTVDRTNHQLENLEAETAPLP", "chain of UniProt P11229 (whole entry, looked up)": "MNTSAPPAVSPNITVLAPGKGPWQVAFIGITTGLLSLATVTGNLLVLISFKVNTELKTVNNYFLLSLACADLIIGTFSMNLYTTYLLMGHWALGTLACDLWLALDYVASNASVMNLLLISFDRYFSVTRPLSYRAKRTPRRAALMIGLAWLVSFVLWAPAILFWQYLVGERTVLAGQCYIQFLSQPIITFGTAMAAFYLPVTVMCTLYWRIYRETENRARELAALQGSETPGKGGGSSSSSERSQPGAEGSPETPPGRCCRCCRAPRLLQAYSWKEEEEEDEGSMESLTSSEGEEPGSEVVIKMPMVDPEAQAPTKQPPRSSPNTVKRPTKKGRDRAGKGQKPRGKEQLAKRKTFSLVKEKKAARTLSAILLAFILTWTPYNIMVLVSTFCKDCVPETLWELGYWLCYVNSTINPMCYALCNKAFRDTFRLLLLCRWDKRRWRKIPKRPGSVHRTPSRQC", "chain of UniProt P28223 (whole entry, looked up)": "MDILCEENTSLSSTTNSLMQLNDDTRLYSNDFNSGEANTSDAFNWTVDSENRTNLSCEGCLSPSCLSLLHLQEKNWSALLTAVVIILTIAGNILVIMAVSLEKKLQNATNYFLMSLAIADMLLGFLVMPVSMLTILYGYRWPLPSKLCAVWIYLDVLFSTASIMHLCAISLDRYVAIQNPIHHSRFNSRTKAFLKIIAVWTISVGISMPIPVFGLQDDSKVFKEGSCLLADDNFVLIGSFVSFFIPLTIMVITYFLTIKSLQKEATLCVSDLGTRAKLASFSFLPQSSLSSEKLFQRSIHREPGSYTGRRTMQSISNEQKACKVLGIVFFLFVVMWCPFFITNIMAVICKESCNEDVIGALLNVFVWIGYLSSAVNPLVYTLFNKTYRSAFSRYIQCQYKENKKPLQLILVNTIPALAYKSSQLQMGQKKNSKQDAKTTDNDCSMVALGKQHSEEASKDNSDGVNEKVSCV", "chain of UniProt P41143 (whole entry, looked up)": "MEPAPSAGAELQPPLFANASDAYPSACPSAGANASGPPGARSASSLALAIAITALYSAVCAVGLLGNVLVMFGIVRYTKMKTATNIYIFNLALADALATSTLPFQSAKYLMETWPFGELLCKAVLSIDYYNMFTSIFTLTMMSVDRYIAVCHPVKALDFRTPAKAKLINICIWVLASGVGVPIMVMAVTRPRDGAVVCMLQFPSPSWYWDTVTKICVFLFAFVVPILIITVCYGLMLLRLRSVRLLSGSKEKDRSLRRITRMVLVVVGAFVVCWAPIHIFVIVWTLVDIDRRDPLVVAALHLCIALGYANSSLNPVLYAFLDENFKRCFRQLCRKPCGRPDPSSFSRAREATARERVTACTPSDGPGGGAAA", "chain of UniProt P20309 (whole entry, looked up)": "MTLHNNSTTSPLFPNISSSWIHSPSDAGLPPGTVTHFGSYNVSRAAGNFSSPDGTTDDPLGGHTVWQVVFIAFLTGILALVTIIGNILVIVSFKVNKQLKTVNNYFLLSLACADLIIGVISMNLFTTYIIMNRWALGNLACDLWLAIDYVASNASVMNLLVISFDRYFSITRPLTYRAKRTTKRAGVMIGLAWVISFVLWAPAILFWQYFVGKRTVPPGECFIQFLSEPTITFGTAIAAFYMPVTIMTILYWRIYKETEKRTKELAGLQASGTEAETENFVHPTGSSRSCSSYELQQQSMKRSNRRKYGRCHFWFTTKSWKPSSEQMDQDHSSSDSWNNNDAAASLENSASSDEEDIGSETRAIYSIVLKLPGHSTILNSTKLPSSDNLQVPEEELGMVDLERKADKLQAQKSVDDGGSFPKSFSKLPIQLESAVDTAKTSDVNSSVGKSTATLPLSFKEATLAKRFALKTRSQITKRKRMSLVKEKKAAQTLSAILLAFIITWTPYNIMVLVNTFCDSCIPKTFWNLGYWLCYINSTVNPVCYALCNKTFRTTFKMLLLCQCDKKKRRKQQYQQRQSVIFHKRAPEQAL"}
{"data": "Set 1", "target": "Eukaryotic initiation factor 4A-I (EIF4A1, Homo sapiens, UniProt P60842)", "read-out": "RNA clamping", "method": "fluorescence polarization", "concentration": "concentration not given", "notes": "mean of two replicates", "together with": "FAM-labelled poly r(AG)8 RNA", "chain of UniProt P60842 (whole entry, looked up)": "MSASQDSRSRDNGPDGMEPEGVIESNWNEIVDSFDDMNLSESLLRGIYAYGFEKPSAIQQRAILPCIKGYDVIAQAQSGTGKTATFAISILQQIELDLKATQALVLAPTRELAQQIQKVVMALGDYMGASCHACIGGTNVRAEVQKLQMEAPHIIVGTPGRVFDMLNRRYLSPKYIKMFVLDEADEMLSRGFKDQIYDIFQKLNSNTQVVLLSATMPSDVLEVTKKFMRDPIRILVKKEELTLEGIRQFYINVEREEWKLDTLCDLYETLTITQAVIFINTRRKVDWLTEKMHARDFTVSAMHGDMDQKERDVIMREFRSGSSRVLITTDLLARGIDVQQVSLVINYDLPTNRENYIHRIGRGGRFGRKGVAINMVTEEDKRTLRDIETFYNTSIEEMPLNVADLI"}
{"SMILES": "COC(=O)[C@H]1[C@@H](c2ccccc2)[C@]2(c3ccc(OC)cc3)Oc3cc(OC)cc(OC)c3[C@@]1(O)C2=O", "fluorescence polarization change": "4.5 mP"}
{"SMILES": "COC(=O)[C@@H]1[C@@H](c2ccccc2)[C@]2(c3ccccc3)Oc3ccccc3[C@@]1(O)[C@H]2O", "fluorescence polarization change": "4.6 mP"}
{"SMILES": "COCC1=N[C@@]2(O)[C@H](C(=O)N(C)OC)[C@@H](c3ccccc3)[C@]3(c4ccc(OC)cc4)Oc4cc(OC)cc(OC)c4[C@]23N1", "fluorescence polarization change": "56.4 mP"}
{"SMILES": "COc1ccc([C@@]23Oc4cc(OC)cc(OC)c4[C@]2(O)c2nc4n(c(=O)c2[C@H]3c2ccccc2)CCC4)cc1", "fluorescence polarization change": "60.9 mP and 70.3 mP"}
{"SMILES": "COCCN[C@]12c3c(OC)cc(OC)cc3O[C@@]1(c1ccc(OC)cc1)[C@H](c1ccccc1)C[C@@H]2O", "fluorescence polarization change": "5.8 mP"}
{"SMILES": "COc1ccc([C@@]23Oc4cc(OC)cc(OC)c4[C@]2(O)c2nc(-c4ccccc4)[nH]c(=O)c2[C@@H]3c2ccccc2)cc1", "fluorescence polarization change": "12.9 mP"}
{"SMILES": "COc1ccc(-c2nc3c(c(=O)[nH]2)[C@H](c2ccccc2)[C@@]2(c4ccc(OC)cc4)Oc4cc(OC)cc(OC)c4[C@@]32O)cc1", "fluorescence polarization change": "31.9 mP"}
{"SMILES": "COc1ccc([C@@]23Oc4cc(OC)cc(OC)c4[C@]2(O)c2nc[nH]c(=O)c2[C@H]3c2ccccc2)cc1", "fluorescence polarization change": "42.5 mP"}
{"SMILES": "COC(=O)[C@H]1[C@@H](O)[C@@]2(O)c3c(OC)cc(OC)cc3O[C@@]2(c2ccc(OC)cc2)[C@@H]1c1ccccc1", "fluorescence polarization change": "70.9 mP and 30.8 mP"}
{"data": "Set 2", "Structure (SMILES)": "N#Cc1ccc(Nc2ccc3[nH]c(=O)[nH]c3c2)c(Cl)c1", "read-out": "cell-free assay", "concentration": "10 µM"}
{"target": "OPRK1 (Homo sapiens, UniProt P41145)", "inhibition [%]": 8.98}
{"target": "OPRM1 (Homo sapiens, UniProt P35372)", "inhibition [%]": 0.37}
{"target": "OPRD1 (Homo sapiens, UniProt P41143)", "inhibition [%]": -0.28}
{"target": "CHRM3 (Homo sapiens, UniProt P20309)", "inhibition [%]": -26.6}
{"target": "HTR2A (Homo sapiens, UniProt P28223)", "inhibition [%]": 5.37}
{"target": "CHRM1 (Homo sapiens, UniProt P11229)", "inhibition [%]": -9.92}
{"data": "Set 3", "Compound": "O=C1CCC(N2Cc3c(ccc4c3OCC43CCN(Cc4ccccc4)CC3)C2=O)C(=O)N1 (centres unmarked)"}
{"host": "male Sprague-Dawley rat", "matrix": "plasma", "route": "intravenous", "dose": "1 mg/kg", "half-life": "2.05 h"}
{"host": "rat Sprague Dawley male", "matrix": "plasma", "route": "intravenous", "dose": "1.0 mg/kg", "half-life": "1.95 h and 2 h"}
{"host": "ICR mice, male", "matrix": "plasma", "route": "oral", "dose": "3.0 mg/kg", "half-life": "2.89 h"}
{"host": "ICR mouse, male", "matrix": "plasma", "route": "intravenous", "dose": "1.0 mg/kg", "half-life": "1.65 h"}
{"host": "rat Sprague Dawley male", "matrix": "plasma", "route": "oral", "dose": "3.0 mg/kg", "half-life": "1.38 h and 1.39 h"}
{"read-out": "metabolic stability", "host": "human", "matrix": "liver microsomes", "concentration": "1 µM", "half-life": "1.39 h"}
{"host": "Sprague Dawley rat, male", "matrix": "plasma", "route": "intravenous", "dose": "1.0 mg/kg", "half-life": "2.19 h"}
{"host": "male Sprague-Dawley rat", "matrix": "plasma", "route": "oral", "dose": "3 mg/kg", "half-life": "1.36 h"}
{"host": "male CD-1 mouse", "matrix": "plasma", "route": "intravenous", "dose": "1 mg/kg", "half-life": "1.64 h"}
{"host": "male ICR mice", "matrix": "plasma", "route": "intravenous", "dose": "1.0 mg/kg", "half-life": "1.2 h and 2.05 h"}
{"host": "Sprague Dawley rat, male", "matrix": "plasma", "route": "oral", "dose": "3.0 mg/kg", "half-life": "1.3 h"}
{"read-out": "metabolic stability", "host": "rat", "matrix": "liver microsomes", "concentration": "1 µM", "half-life": "1.88 h"}
{"host": "male CD-1 mouse", "matrix": "plasma", "route": "oral", "dose": "3 mg/kg", "half-life": "2.89 h"}
{"host": "male ICR mice", "matrix": "plasma", "route": "oral", "dose": "3.0 mg/kg", "half-life": "4.24 h and 3.04 h and 1.38 h"}
{"host": "ICR mouse, male", "matrix": "plasma", "route": "oral", "dose": "3.0 mg/kg", "half-life": "4.24 h and 3.04 h and 1.38 h"}
{"data": "Set 4", "target": "Bromodomain-containing protein 4, BD1 (BRD4, Homo sapiens, UniProt O60885)", "read-out": "acetyl-histone H4 peptide binding", "method": "AlphaScreen displacement", "concentration": "50 µM"}
{"Compound": "COc1cccc(N2C(=O)NC(=O)C(=CNc3ccc(F)cc3)C2=O)c1", "inhibition [%]": 7.95}
{"Compound": "CC(O)=C(C#N)C(=O)Nc1cc(Br)ccc1Br", "inhibition [%]": 9.6}
{"Compound": "CN1C(=O)NC(=O)C(=Cc2ccc[nH]2)C1=O", "inhibition [%]": 9.75}
{"Compound": "O=C1NC(=O)N(c2ccc(Br)cc2)C(=O)C1=Cc1ccc(-c2ccccc2C(=O)O)o1", "inhibition [%]": 15.6}
{"Compound": "Nc1nc(N2CCNCC2)c2nc[nH]c2n1", "inhibition [%]": 13.6}
{"note": "Some of these lines once more (set 3):"}
{"host": "male CD-1 mouse", "matrix": "plasma", "route": "oral", "dose": "3 mg/kg", "half-life": "2.89 h"}
{"host": "male ICR mice", "matrix": "plasma", "route": "oral", "dose": "3.0 mg/kg", "half-life": "4.24 h and 3.04 h and 1.38 h"}
{"host": "ICR mice, male", "matrix": "plasma", "route": "oral", "dose": "3.0 mg/kg", "half-life": "2.89 h"}
